Published values pooled from the literature.
Lines come from different studies, so protocols differ. ± marks the error that the study gave.
Cell line: Vero

| SMILES | read-out | technique | time | CC50 |
| --- | --- | --- | --- | --- |
| CC(C)c1cc2c(cc1O)[C@@]1(C)CCC[C@@](C)(CN)[C@@H]1CC2 | cell growth or viability | MTT | 96 h | 28.3 µM |
| CN1c2ccccc2C(N)c2sccc2S1(=O)=O (stereo not drawn) |  |  |  | > 100 µM |
| CC(C)c1cc2c(cc1O)[C@@]1(C)CCC[C@@](C)(CN3C(=O)c4ccccc4C3=O)[C@@H]1CC2 | cell growth or viability | MTT | 96 h | 9.51 µM |
| COc1ccc2c(O[C@@H]3C[C@H]4C(=O)N[C@]5(C(=O)NS(=O)(=O)C6CC6)C[C@H]5/C=C\CCCCN(C)C(=O)[C@@H]4C3)cc(-c3nc(C(C)C)cs3)nc2c1C | cell growth or viability | WST-1 | 18 h | 18.6 µM |
| O=C1c2ccccc2C(=O)c2c1ccc1c2C(C(=O)Nc2ccccc2Cl)C(=O)C1c1ccccc1 (stereo not drawn) | cytotoxicity |  |  | 78.33 ± 0.02 µg/mL |
| C[C@@H](O)[C@H](NC(=O)[C@@H]1CCCN1C(=O)[C@H](Cc1ccc(O)cc1)NC(=O)CNC(=O)[C@H](CCCNC(=N)N)NC(=O)CNC(=O)[C@H](CO)NC(=O)[C@H](Cc1c[nH]cn1)NC(=O)OCC1c2ccccc2-c2ccccc21)C(=O)N[C@@H](CO)C(=O)N1CCC[C@H]1C(=O)N[C@@H](Cc1c[nH]c2ccccc12)C(=O)N[C@@H](CO)C(=O)O | cell growth or viability | MTS | 24 h | > 200 µg/mL |
| O=C1c2ccccc2C(=O)c2c1ccc1c2C(C(=O)Nc2ccc(Br)cc2)C(=O)C1c1ccccc1 (stereo not drawn) | cytotoxicity |  |  | 80.3 ± 0.01 µg/mL |
| CC(C)(C)SSc1ccccc1CCOP1(=O)OC[C@H]2O[C@@H](n3ccc(=O)[nH]c3=O)[C@](C)(F)[C@@H]2O1 (stereo partly drawn) |  | MTS | 4 days | 16.4 µM |
| CC(=O)[C@@]1(O)CC[C@H]2[C@@H]3CCC4=CC(=O)CC[C@]4(C)[C@H]3CC[C@@]21C | cell growth or viability | WST-1 |  | > 40 µM |
| CC[C@H](C)[C@H](NC(=O)[C@H](CC(C)C)NC(=O)[C@H](Cc1c[nH]cn1)NC(=O)[C@H](Cc1c[nH]cn1)NC(=O)[C@@H](NC(=O)[C@H](Cc1ccccc1)NC(=O)[C@H](CC(N)=O)NC(=O)[C@H](Cc1c[nH]c2ccccc12)NC(=O)[C@@H](NC(=O)[C@H](Cc1c[nH]cn1)NC(=O)[C@H](Cc1c[nH]cn1)NC(=O)[C@H](Cc1c[nH]c2ccccc12)NC(=O)[C@@H](N)CC(C)C)[C@@H](C)CC)C(C)C)C(N)=O |  | MTT | 48 h | 27.6 µg/mL |
| O=C1C(Cl)=C(Cl)C(=O)c2ccccc21 | cell growth or viability |  | 72 h | 21.8 µM |
| CCN(CC)CC(=O)NNc1ccccc1Sc1cc(Cl)ccc1[N+](=O)[O-] |  |  |  | > 100 µM |
| O=C1c2ccccc2C(=O)c2c1ccc1c2C(C(=O)NCc2ccccc2)C(=O)C1c1ccccc1 (stereo not drawn) | cytotoxicity |  |  | 65.6 ± 0.03 µg/mL |
| CC(C)OC(=O)C(C)NP(=O)(OCC1OC(n2ccc(=O)[nH]c2=O)C(F)(Cl)C1O)Oc1ccccc1 (stereo not drawn) |  | MTS | 4 days | > 100 µM |
| CCOC(=O)CCCCCCNC1c2ccccc2N(C)S(=O)(=O)c2ccsc21 (stereo not drawn) |  |  |  | > 100 µM |
| CC[C@H](C)[C@H](NC(=O)[C@H](CC(C)C)NC(=O)CNC(=O)[C@H](Cc1c[nH]cn1)NC(=O)[C@@H](NC(=O)[C@H](Cc1ccccc1)NC(=O)[C@H](CC(N)=O)NC(=O)[C@H](Cc1c[nH]c2ccccc12)NC(=O)[C@@H](NC(=O)[C@H](Cc1c[nH]cn1)NC(=O)[C@H](Cc1c[nH]cn1)NC(=O)[C@H](Cc1c[nH]c2ccccc12)NC(=O)[C@@H](N)CC(C)C)[C@@H](C)CC)C(C)C)C(N)=O |  | MTT | 48 h | 26.8 µg/mL |
| CCOc1ccc2nc3cc(N)ccc3c(N)c2c1 | cell growth or viability | WST-1 | 18 h | > 40 µM |
| COc1ccc(NC(=O)C2C(=O)C(c3ccccc3)c3ccc4c(c32)C(=O)c2ccccc2C4=O)cc1 (stereo not drawn) | cytotoxicity |  |  | 68.12 ± 0.03 µg/mL |

Some of these lines once more:
| SMILES | read-out | technique | time | CC50 |
| --- | --- | --- | --- | --- |
| CC(C)c1cc2c(cc1O)[C@@]1(C)CCC[C@@](C)(CN)[C@@H]1CC2 | cell growth or viability | MTT | 96 h | 28.3 µM |
| CC(=O)[C@@]1(O)CC[C@H]2[C@@H]3CCC4=CC(=O)CC[C@]4(C)[C@H]3CC[C@@]21C | cell growth or viability | WST-1 |  | > 40 µM |
